# Measured values gathered from unrelated publications.
# Cell line: MDA-MB-231
Structure (SMILES),effect on,method,concentration,time,inhibition
OC(c1ccc(Cl)c(C(F)(F)F)c1)c1c[nH]c2ncc(C(F)(F)F)cc12 (centres unmarked),cell growth or viability,,10 µM,72 h,15%
Nc1ccc(Oc2c(F)c(F)c(Oc3ccc(N)cc3)c(F)c2F)cc1,cell growth or viability,MTT,100 µM,48 h,44%
COc1ccc(C2=Nn3c(NN=C4C(=O)N(Cc5ccccc5)c5ccc(Cl)cc54)nnc3SC2)cc1,cell growth or viability,SRB,10 µM,,13%
Clc1ccc2ccc3[n+](c2c1)[Ir-3]12([c]4ccccc4-3)([c]3ccccc3-c3ccc4ccc(Cl)cc4[n+]31)[n+]1ccccc1-c1cccc[n+]12.F[P-](F)(F)(F)(F)F,cell migration,Transwell,0.3 µM,24 h,80%
C/C(=N\N(c1ccccc1)c1ccccc1)c1ccc(O)cc1,cell growth or viability,MTT,100 µM,48 h,99%
COc1ccc2c(c1)/C(=N\Nc1nnc3n1N=C(c1ccccc1)CS3)C(=O)N2,cell growth or viability,SRB,10 µM,,23%
Cn1nc(-c2cccc(O)c2)c2c(N)ncnc21,cell viability,MTT,10 µM,72 h,26%
COc1cccc(Cc2c[nH]c3ncccc23)c1,cell growth or viability,,10 µM,72 h,8%
C[C@@H]1O[C@@H](OC(=O)/C=C/c2ccc(O)cc2)[C@H](OC(=O)/C=C/c2ccc(O)cc2)[C@H](O)[C@H]1O,cell growth or viability,MTT,10 µM,,55%
FC(F)(F)c1cnc2[nH]cc(Cc3cccc(Cl)c3)c2c1,cell growth or viability,,10 µM,72 h,6.1%
COc1ccc(SCC(=O)c2ccc(O)cc2O)cc1,cell growth or viability,MTT,100 µM,48 h,98%

# Excerpt of the above:
Structure (SMILES),effect on,method,concentration,time,inhibition
COc1ccc(C2=Nn3c(NN=C4C(=O)N(Cc5ccccc5)c5ccc(Cl)cc54)nnc3SC2)cc1,cell growth or viability,SRB,10 µM,,13%
